Measured values pooled from the literature.
Each line is one published result; not all experiments were run side by side. Several values in a cell are separate wells, animals, samples, runs or records. ± marks the error that the study gave.

O=C(CCCCCCC(=O)Nc1ccc(CC[18F])cc1)NO — tissue uptake (athymic nu/nu male mice, LNCaP xenograft, heart; intravenous, 0.5 h): 4.3 ± 0.7 %ID/g
CCCC(CCC)C(=O)Oc1cccc(C(O)CCN)c1.O=CO (stereo not shown) — ERG, scotopic, rod b-wave (Abca4-/-Rdh8-/- mice, photic damage; oral, 20 mg/kg, 7 days, flash intensity 0.005): 52.3 µV and 55.8 µV and 62.2 µV and 49.3 µV and 72.7 µV and 80.5 µV
CO[C@H]1/C=C/O[C@@]2(C)Oc3c(C)c(O)c4c(c3C2=O)C2=NC3(CCN(CC(C)C)CC3)NC2=C(NC(=O)/C(C)=C\C=C\[C@H](C)[C@H](O)[C@@H](C)[C@@H](O)[C@@H](C)[C@H](OC(C)=O)[C@@H]1C)C4=O — Vd (CD-1 mouse, female, plasma; 10 mg/kg single dose): 3.51 L/kg
CO[C@]1(C(=O)N[C@@H](C)c2ccc(-n3cc(F)cn3)nc2)CC[C@H](c2nc(C)cc(Nc3cc(C)[nH]n3)n2)CC1 — radioactivity excreted in feces (human, feces; oral, dose not given, 48 h; baseline: dose): 29.1%
CC(C)n1c(Nc2cccnc2)nc2cnc(Nc3ccc(N4CCN(C)CC4)cc3)nc21 — subjects with adverse event (item: antithrombin III antibodies elevated; healthy male subjects; oral, 100 mg, study, together with: itraconazole): 0%
CC(C)(C(=O)N1CCOc2c(C#N)cncc2C1)C(F)F — subjects with adverse event (item: abdominal discomfort; human; oral, 15 mg twice daily, 14 days, multiple ascending dose): 12.5%
CCCCOC(=O)N1CCN(C(=O)[C@H](CP(=O)(O)O)NC(=O)c2cc(N3CC[C@H](OC)C3)nc(-c3ccccc3)n2)CC1 — change in QTcB interval (human; subcutaneous, 8 mg, 24 h post-dose; baseline: baseline): -0.5 ± 20.8 ms
c1ccc2cc3ccccc3cc2c1 — literature range factor (PDMS-water partitioning; PAH compilation; baseline: maximum over minimum K): 5
CN1CCN(c2cccc3c2CCN(C(=O)/C=C/c2c(-n4cnnn4)ccc(Cl)c2F)[C@@H]3C(=O)Nc2ccc(C(=O)O)cc2)C(=O)C1 — subjects with any adverse event (healthy human subjects; intravenous infusion, 20 mg/h, 5 days): 12.5%
NC[C@@H]1O[C@H](O[C@H]2[C@@H](O)[C@H](O[C@@H]3[C@@H](O)[C@H](N)C[C@H](N)[C@H]3O[C@H]3O[C@H](CO)[C@@H](O)[C@H](O)[C@H]3N)O[C@@H]2CO)[C@H](N)[C@@H](O)[C@@H]1O — body weight (NSG mice; dose not given, day 5 of treatment): 22.9 g and 24.3 g and 22.6 g and 23.4 g and 23.5 g and 20.5 g and 21.4 g and 22.7 g
CNCCOC12CC3(C)CC(C)(CC(Cn4ncc(-c5ccc(N6CCc7cccc(C(=O)Nc8nc9ccccc9s8)c7C6)nc5C(=O)O)c4C)(C3)C1)C2 — dP/dt at 50 change (beagle dog, male, anaesthetised; intravenous bolus, 0.03 mg/kg, 210 min; baseline: baseline): -29%
CN(C(=O)n1cnc(-c2cccnc2)c1)[C@H]1CC[C@H](O)CC1 — tissue concentration (rat, cortex; oral, 10 mg/kg single dose, 4 h): 31.6 ± 7 ng/g
Cn1cc(-c2cn3nccc3c(-c3cnn([C@]4(CC#N)C[C@@H](C#N)C4)c3)n2)cn1 — amount excreted unchanged in urine (human, urine; oral, 30 mg once daily, day 10, dosing interval geometric mean): 0.2 mg
Cc1c(-c2ccc(N3CCc4cccc(C(=O)Nc5nc6ccccc6s5)c4C3)nc2C(=O)O)cnn1CC12CC3(C)CC(C)(C1)CC(OCCNCC[C@H](O)CO)(C3)C2 — cardiac output change (anaesthetised male beagle dogs; intravenous infusion, 0.3 mg/kg/min, 120 min; baseline: vehicle): -45%
Cc1ccc([C@@H]2O[C@H](CO)[C@@H](O)[C@H](O)[C@H]2O)cc1Cc1ccc(-c2ccc(F)cc2)s1 — urinary phosphate excretion change (item: inorganic phosphorus; Japanese type 2 diabetes patients; 25 mg, day 4, 24 h urine collection; baseline: baseline): 1.25 mg
CCN1/C(=C/C(C)=O)Sc2ccc(F)cc21 — systolic blood pressure (cynomolgus monkey; oral, 30 mg/kg, 1 h post-dose): 109 ± 9 mmHg
N#Cc1ccc2c(c1)[C@H]1CCCN(C(=O)c3ccc4[nH]cnc4c3)[C@H]1C2 — pre-dose plasma concentration (human, plasma; 80 mg once daily, day 2): 1210 nmol/L
C[Si]1(C)O[Si](C)(C)O[Si](C)(C)O[Si](C)(C)O[Si](C)(C)O1 — entropy of phase change (1-octanol/air; concentration not given): -0.064 kJ/(mol·K)
COC(=O)C1=CO[C@@H](O[C@@H]2O[C@H](CO)[C@@H](O)[C@H](O)[C@H]2O)[C@@H]2C(CO)=CC[C@H]12 — accuracy (three freeze-thaw cycles; rat plasma; 1000 ng/mL, -70 °C freeze): 93.6%
COc1cc(C(=O)NC2CCN(C)CC2)c(F)cc1Nc1ncc(C(F)(F)F)c(Oc2cccc3c2C(=O)N(C)C3)n1 — renal clearance (0-24 h) (human patients, urine and plasma; oral, 25 mg single dose, geometric mean): 9.91 mL/min
CNC(=O)c1ccc(-c2cnc3ncc(Cc4ccc5ncccc5c4)n3n2)cc1F — abdominal distension incidence (other cancer patients; oral, 600 mg twice daily, all grades RP2D expansion): 6%
O=C(OC(C(F)(F)F)C(F)(F)F)N1CCN(Cc2cccc(Oc3ccccc3)c2)CC1 — Ktrans (PET blocking study; rhesus monkey, brain CB; 0.03 mg/kg, compound pretreatment, together with: [18F]T-401 tracer): 0.003 min⁻¹
O=C(/C=C/CCc1ccc(O)cc1)/C=C/c1ccc(O)cc1 — body weight (nude mouse MCF7 xenograft; 20 mg/kg, day 6): 20.5 ± 1.04 g
COc1ccc2nc([S@@+]([O-])Cc3ncc(C)c(OC)c3C)[nH]c2c1 — AUC (human, dried blood spots; oral, 10 mg omeprazole, together with: fluvoxamine): 605 ng·h/mL
OC[C@H]1O[C@@H](c2ccc(Cl)c(Cc3ccc(O[C@H]4CCOC4)cc3)c2)[C@H](O)[C@@H](O)[C@@H]1O — change in Total cholesterol (Japanese type 1 diabetes patients, blood; 25 mg, day 28; baseline: baseline): 8.92 mg/dL
CC(C)C[C@H](NC(=O)[C@@H](Cc1c[nH]c2ccccc12)NC(=O)[C@H](Cc1ccc(O)cc1)NC(=O)[C@H](CO)NC(=O)[C@H](Cc1c[nH]c2ccccc12)NC(=O)[C@H](Cc1c[nH]cn1)NC(=O)[C@@H]1CCC(=O)N1)C(=O)N[C@@H](CCCNC(=N)N)C(=O)N1CCC[C@H]1C(=O)NCC(N)=O — patients, drug-related reproductive TEAEs (Chinese CPP children, girls; intramuscular, 22.5 mg, 12 months, day 1, month 6): 3.2%
Cc1ccc(Sc2ccccc2N2CCNCC2)c(C)c1 — abdominal distension (healthy adult men; oral, 10 mg single, 10 day): 0%
C[C@@H](Oc1ccc(S(C)(=O)=O)cc1C(=O)N1C[C@@H]2C[C@]2(c2cc(C(F)(F)F)on2)C1)C(F)(F)F — renal clearance (young healthy humans, plasma and urine; oral, 25 mg, 0 to 24 h, single dose): 4.04 mL/min
CNc1ccc(-c2nc3ccc(O)cc3s2)cc1 [carbon-11 labelled] — SUV (ex vivo biodistribution; B6SJL mouse, normal, heart; intravenous, 30 min): 0.325 ± 0.158
O=C(Nc1nc2cccc(-c3ccc(CN4CCS(=O)(=O)CC4)cc3)n2n1)C1CC1 — treatment-emergent adverse events (item: infections and infestations; human rheumatoid arthritis patients; oral, 75 mg once daily, 4 weeks, regardless of relatedness): 0%
CN(CCC(=O)O)C(=O)c1ccc2c(c1)CC[C@@H]1[C@@H]2CC[C@]2(C)C(c3cncc(F)c3)=CC[C@@H]12 — total bilirubin change (premenopausal women with endometriosis pain, serum; 60 mg twice daily, end of treatment, completers, median; baseline: baseline): 0.4 mg/dL
CC[C@H](C)[C@H](NC(=O)CN)C(=O)N[C@@H](C)C(=O)N[C@@H](CCCCN)C(=O)N[C@@H](Cc1ccccc1)C(=O)N[C@H](C(=O)N[C@@H](CCCCN)C(=O)N[C@@H](CCCCN)C(=O)N[C@H](C(=O)N[C@@H](C)C(=O)N[C@@H](CCCCN)C(=O)N[C@@H](C)C(=O)N[C@@H](CC(C)C)C(=O)N[C@@H](CCCNC(=N)N)C(N)=O)[C@@H](C)CC)[C@@H](C)CC — helix content (circular dichroism; 10 mM SDS; 100 µM): 29%
Cc1cc(NC2CCN(C(=O)OC3CCN(C(=O)/C=C/CN(C)C)C3)CC2)n2ncc(C(C)C)c2n1 (stereo not shown) — patients with adverse event (Phase I dose escalation CTCAE v4.0, item: Flatulence; patients with advanced solid tumours; dose not given, TIW dosing any grade): 0%
C=C[C@@](C)(/C=C/c1ccc(O)cc1)CCC=C(C)C — accuracy (post-procedure stability; rat plasma; 200 ng/mL, 3 h, room temperature): 119%
CC(C)(Sc1ccncc1-c1ccc(C#N)c2ccccc12)C(=O)O — amount excreted in urine (0-24 h) (human, urine; oral, 5 mg, together with: febuxostat 20 mg): 69.3 µg
NC1(C(=O)N[C@@H](CCO)c2ccc(Cl)cc2)CCN(c2nc[nH]c3nccc2-3)CC1 — incidence of Erythema (metastatic CRPC patients; dose not given, grade 3 to 4, treatment-related, all doses, together with: enzalutamide 160 mg daily): 0%
Cl.[2H]C([2H])([2H])CC(=O)c1cnc(NC(=O)C2CC2)cc1Nc1cccc(-c2ncn(C([2H])([2H])[2H])n2)c1OC — Vz/F (geometric mean; human; oral, 40 mg twice daily, day 1, fed, liquid, multiple dose): 108 L
N#Cc1ccc2c(c1)[C@H]1CCCN(C(=O)c3ccc4[nH]cnc4c3)[C@H]1C2 — SHBG level (human males; 160 mg, day 15): 37 nmol/L
CCc1cc(C(=O)NC)c2nccc(N3CCc4c(cc(Cn5ccnc5)cc4-c4cn(C)nc4C(F)(F)F)C3=O)c2c1 — blood HGB (Sprague Dawley rats; oral, 100 mg/kg once daily, 7 days): 133 ± 4.11 g/L
COc1ncc(-c2nc3c(n2C(C)C)[C@H](c2ccc(Cl)cc2)N(c2cc(Cl)cn(C)c2=O)C3=O)c(OC)n1 — AUC(0-last) (LC-MS/MS, noncompartmental; human, plasma; oral, 120 mg, cycle 1 day 1, high-dose, geometric mean): 18500 ng·h/mL
O=C(c1cccnc1-c1ccncc1)N1CCC(O)(Cc2ccccc2)CC1 — Cmax/dose (healthy Japanese adults, plasma; oral, 300 mg twice daily, day 21): 6.88 ng/mL/mg
FC(F)(F)c1ccc(CNc2ccc(Cc3c[nH]c4ncc(Cl)cc34)cn2)cn1 — cognitive disorder incidence (patients with advanced solid tumours; oral, 1000 mg/day, all patients, all grades): 8%
NC(=O)c1cc(Oc2ccc(NC(=O)Nc3ccc(Cl)c(C(F)(F)F)c3)c(F)c2)cc[n+]1[O-] — accuracy (long-term stability; mouse plasma; 750 ng/mL, 6 months, -80 °C): 90.4%

For quick reference, copied from above:
O=C(/C=C/CCc1ccc(O)cc1)/C=C/c1ccc(O)cc1 — body weight (nude mouse MCF7 xenograft; 20 mg/kg, day 6): 20.5 ± 1.04 g
COc1ccc2nc([S@@+]([O-])Cc3ncc(C)c(OC)c3C)[nH]c2c1 — AUC (human, dried blood spots; oral, 10 mg omeprazole, together with: fluvoxamine): 605 ng·h/mL
OC[C@H]1O[C@@H](c2ccc(Cl)c(Cc3ccc(O[C@H]4CCOC4)cc3)c2)[C@H](O)[C@@H](O)[C@@H]1O — change in Total cholesterol (Japanese type 1 diabetes patients, blood; 25 mg, day 28; baseline: baseline): 8.92 mg/dL
